Results pooled from the literature.
Each numbered part is a random draw from the data of one study; scales do not carry over between parts.
Sequence of UniProt Q6PHR2 (whole entry, looked up): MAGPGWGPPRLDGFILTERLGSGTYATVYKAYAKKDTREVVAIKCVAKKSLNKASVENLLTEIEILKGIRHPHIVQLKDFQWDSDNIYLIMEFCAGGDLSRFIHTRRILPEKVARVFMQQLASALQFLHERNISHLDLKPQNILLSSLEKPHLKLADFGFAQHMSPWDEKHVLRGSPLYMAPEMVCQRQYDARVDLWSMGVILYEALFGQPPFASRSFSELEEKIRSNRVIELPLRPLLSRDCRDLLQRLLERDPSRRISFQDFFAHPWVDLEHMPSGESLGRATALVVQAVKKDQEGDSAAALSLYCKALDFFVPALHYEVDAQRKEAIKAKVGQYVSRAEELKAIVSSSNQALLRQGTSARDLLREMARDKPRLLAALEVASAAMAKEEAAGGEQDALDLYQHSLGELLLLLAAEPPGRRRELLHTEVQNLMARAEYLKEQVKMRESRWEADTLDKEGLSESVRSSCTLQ
Sequence of UniProt P35590 (whole entry, looked up): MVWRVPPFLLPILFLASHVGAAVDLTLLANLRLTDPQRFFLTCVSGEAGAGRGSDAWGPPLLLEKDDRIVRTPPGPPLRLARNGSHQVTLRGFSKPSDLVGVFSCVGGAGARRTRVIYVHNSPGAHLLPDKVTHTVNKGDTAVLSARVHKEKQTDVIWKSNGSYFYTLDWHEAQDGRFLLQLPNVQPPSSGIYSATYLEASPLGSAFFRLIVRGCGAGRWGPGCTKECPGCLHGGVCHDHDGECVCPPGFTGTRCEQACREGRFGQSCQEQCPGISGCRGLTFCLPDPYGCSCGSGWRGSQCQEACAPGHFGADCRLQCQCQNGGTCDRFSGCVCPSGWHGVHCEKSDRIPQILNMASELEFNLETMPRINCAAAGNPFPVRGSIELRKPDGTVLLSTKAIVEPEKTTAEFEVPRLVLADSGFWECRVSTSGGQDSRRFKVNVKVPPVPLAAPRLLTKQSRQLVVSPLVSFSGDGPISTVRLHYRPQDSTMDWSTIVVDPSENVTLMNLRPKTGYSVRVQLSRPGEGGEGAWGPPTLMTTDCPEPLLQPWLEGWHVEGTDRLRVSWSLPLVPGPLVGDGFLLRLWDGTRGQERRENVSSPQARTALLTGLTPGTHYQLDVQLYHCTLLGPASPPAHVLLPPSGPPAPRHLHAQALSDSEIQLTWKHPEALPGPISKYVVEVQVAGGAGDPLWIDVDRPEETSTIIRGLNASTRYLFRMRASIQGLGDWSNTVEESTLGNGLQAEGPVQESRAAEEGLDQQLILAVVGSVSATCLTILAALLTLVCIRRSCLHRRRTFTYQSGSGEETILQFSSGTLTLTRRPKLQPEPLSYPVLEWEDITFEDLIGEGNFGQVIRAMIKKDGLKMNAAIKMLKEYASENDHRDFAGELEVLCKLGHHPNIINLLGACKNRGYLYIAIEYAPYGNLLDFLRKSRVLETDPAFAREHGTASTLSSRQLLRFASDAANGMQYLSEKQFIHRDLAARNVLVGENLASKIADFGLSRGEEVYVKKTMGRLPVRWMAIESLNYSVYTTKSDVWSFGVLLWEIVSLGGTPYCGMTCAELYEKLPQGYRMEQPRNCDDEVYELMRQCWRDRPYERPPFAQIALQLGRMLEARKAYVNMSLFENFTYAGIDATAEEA
Sequence of UniProt P36896 (whole entry, looked up): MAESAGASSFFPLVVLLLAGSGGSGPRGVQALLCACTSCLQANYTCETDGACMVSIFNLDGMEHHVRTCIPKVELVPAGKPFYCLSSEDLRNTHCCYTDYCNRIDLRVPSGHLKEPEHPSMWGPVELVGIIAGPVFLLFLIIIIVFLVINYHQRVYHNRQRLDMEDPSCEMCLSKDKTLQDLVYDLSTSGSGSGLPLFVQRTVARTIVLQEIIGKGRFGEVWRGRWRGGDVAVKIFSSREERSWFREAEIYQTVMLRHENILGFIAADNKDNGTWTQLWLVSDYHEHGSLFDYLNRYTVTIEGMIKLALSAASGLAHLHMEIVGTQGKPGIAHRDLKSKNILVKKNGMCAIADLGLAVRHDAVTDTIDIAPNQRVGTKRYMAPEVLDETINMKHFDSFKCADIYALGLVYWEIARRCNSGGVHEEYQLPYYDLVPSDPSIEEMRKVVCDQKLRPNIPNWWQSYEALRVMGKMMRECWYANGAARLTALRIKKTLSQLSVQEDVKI
Sequence of UniProt Q9Y6M4 (whole entry, looked up): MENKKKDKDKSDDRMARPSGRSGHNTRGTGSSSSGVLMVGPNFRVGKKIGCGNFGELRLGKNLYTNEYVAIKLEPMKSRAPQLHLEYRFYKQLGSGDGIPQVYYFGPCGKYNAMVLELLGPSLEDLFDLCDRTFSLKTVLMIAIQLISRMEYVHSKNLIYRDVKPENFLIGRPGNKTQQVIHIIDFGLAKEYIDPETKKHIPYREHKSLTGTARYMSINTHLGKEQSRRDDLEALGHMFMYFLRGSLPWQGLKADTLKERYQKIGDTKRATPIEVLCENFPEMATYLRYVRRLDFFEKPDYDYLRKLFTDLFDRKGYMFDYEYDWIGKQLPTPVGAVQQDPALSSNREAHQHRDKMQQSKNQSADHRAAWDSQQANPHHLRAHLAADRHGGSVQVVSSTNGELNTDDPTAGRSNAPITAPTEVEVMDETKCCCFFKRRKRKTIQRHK
Sequence of UniProt P10398 (whole entry, looked up): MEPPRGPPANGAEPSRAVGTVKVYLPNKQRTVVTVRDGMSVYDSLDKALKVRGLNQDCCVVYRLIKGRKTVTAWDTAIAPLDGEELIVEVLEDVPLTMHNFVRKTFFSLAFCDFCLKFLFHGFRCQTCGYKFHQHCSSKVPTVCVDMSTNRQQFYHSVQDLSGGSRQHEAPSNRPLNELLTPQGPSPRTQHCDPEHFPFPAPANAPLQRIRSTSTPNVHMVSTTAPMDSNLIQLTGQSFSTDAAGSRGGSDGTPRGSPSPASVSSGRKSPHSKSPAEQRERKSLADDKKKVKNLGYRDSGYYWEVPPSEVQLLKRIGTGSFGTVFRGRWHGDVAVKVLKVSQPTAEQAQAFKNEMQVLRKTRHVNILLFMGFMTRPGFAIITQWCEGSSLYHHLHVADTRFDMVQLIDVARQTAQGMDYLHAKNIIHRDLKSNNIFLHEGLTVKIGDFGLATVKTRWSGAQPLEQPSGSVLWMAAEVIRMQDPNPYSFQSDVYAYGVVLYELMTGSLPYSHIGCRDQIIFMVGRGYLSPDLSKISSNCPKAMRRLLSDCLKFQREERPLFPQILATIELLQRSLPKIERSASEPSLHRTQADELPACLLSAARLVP
Sequence of UniProt O75914 (whole entry, looked up): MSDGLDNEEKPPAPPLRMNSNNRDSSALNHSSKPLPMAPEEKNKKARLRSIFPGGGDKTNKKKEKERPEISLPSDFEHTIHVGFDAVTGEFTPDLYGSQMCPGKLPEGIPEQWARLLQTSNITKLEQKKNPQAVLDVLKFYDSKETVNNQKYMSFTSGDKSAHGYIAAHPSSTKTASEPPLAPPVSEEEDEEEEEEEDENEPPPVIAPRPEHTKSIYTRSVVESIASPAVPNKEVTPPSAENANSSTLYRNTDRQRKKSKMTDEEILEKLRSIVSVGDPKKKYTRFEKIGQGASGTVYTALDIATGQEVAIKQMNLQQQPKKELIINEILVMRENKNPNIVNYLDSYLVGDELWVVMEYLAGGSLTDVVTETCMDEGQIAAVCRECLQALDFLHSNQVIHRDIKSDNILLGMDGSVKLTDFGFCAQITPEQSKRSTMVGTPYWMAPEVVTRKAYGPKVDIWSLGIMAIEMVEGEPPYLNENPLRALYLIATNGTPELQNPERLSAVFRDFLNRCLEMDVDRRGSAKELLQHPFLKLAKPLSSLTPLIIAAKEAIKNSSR
Sequence of UniProt P52333 (whole entry, looked up): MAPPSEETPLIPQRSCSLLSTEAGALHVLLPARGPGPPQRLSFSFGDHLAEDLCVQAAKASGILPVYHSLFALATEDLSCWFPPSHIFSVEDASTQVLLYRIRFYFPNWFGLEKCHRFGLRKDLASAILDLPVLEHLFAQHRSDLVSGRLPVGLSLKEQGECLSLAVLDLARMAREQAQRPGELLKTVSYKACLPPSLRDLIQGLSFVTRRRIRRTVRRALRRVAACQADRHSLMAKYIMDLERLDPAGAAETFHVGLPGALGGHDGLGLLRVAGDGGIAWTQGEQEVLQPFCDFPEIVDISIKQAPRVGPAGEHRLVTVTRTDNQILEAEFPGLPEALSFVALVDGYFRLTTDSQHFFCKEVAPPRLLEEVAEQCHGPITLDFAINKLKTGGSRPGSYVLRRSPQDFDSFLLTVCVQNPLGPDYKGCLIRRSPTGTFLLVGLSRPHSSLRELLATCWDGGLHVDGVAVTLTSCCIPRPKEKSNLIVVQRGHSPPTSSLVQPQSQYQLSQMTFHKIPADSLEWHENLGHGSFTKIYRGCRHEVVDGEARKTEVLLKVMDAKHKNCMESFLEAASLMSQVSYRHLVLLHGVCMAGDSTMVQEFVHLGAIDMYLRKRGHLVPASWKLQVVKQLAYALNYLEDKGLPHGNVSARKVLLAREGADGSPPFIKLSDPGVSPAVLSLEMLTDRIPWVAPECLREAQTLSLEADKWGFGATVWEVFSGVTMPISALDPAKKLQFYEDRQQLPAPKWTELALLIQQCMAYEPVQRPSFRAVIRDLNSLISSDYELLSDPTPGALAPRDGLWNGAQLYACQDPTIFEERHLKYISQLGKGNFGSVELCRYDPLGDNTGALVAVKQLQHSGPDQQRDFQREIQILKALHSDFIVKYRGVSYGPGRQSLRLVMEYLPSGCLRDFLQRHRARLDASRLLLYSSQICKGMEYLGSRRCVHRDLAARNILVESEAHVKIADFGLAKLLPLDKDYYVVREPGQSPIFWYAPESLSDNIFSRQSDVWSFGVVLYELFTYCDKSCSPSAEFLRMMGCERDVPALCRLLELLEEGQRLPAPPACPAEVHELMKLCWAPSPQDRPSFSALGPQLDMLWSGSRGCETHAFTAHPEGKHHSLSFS

Series 1 — SMILES: CC(C)N(CCC(=O)c1ccc2ccccc2c1)Cc1ccccc1; observed: enzyme activity; action: inhibitor; tested at: 0.5 µM; relative to: control; measurement: remaining activity
Tyrosine-protein kinase Mer (MERTK, Homo sapiens, UniProt Q12866): 106%
Serine/threonine-protein kinase TAO2 (TAOK2, Homo sapiens, UniProt Q9UL54): 96.1%
Activin receptor type-1B (ACVR1B, Homo sapiens, UniProt P36896): 99.5%
Fibroblast growth factor receptor 3 (FGFR3, Homo sapiens, UniProt P22607): 99.8%
Serine/threonine-protein kinase TBK1 (TBK1, Homo sapiens, UniProt Q9UHD2): 92.4%
Casein kinase I isoform gamma-3 (CSNK1G3, Homo sapiens, UniProt Q9Y6M4): 99%
Serine/threonine-protein kinase Nek6 (NEK6, Homo sapiens, UniProt Q9HC98): 109%
Fibroblast growth factor receptor 1 (FGFR1, Homo sapiens, UniProt P11362): 99.5%
Tyrosine-protein kinase JAK3 (JAK3, Homo sapiens, UniProt P52333): 80.9%
Serine/threonine-protein kinase A-Raf (ARAF, Homo sapiens, UniProt P10398): 104%
Serine/threonine-protein kinase ULK2 (ULK2, Homo sapiens, UniProt Q8IYT8): 113%
Mitogen-activated protein kinase kinase kinase 5 (MAP3K5, Homo sapiens, UniProt Q99683): 103%
Serine/threonine-protein kinase ULK3 (ULK3, Homo sapiens, UniProt Q6PHR2): 95.8%
Dual specificity mitogen-activated protein kinase kinase 2 (MAP2K2, Homo sapiens, UniProt P36507): 92.5%
Tyrosine-protein kinase FRK (FRK, Homo sapiens, UniProt P42685): 95.8%
Glycogen synthase kinase-3 beta (GSK3B, Homo sapiens, UniProt P49841): 94.9%
Rhodopsin kinase GRK7 (GRK7, Homo sapiens, UniProt Q8WTQ7): 121%
MAP kinase-activated protein kinase 2 (MAPKAPK2, Homo sapiens, UniProt P49137): 99%
Mitogen-activated protein kinase 3 (MAPK3, Homo sapiens, UniProt P27361): 98.5%
Serine/threonine-protein kinase Nek1 (NEK1, Homo sapiens, UniProt Q96PY6): 81.9%
Casein kinase I isoform gamma-2 (CSNK1G2, Homo sapiens, UniProt P78368): 104%
Wee1-like protein kinase (WEE1, Homo sapiens, UniProt P30291): 92.1%
Mitogen-activated protein kinase kinase kinase 14 (MAP3K14, Homo sapiens, UniProt Q99558): 117%
Macrophage-stimulating protein receptor (MST1R, Homo sapiens, UniProt Q04912): 92.6%
Angiopoietin-1 receptor (TEK, Homo sapiens, UniProt Q02763): 96.3%

Series 2 — observed: kinase activity; action: inhibitor; tested at: 1 µM; measurement: remaining activity
Structure (SMILES): CC(C)S(=O)(=O)c1ccc2nccc(Nc3ccc4sc(C5CCCC5)nc4c3)c2c1.Cl
Rho-associated protein kinase 2 (ROCK2, Homo sapiens, UniProt O75116): 99%
Serine/threonine-protein kinase MARK1 (MARK1, Homo sapiens, UniProt Q9P0L2): 97%
Serine/threonine-protein kinase PAK 1 (PAK1, Homo sapiens, UniProt Q13153): 82%
Bone morphogenetic protein receptor type-1B (BMPR1B, Homo sapiens, UniProt O00238): 90%
Epithelial discoidin domain-containing receptor 1 (DDR1, Homo sapiens, UniProt Q08345): 83%
Serine/threonine-protein kinase ULK3 (ULK3, Homo sapiens, UniProt Q6PHR2): 100%
cGMP-dependent protein kinase 2 (PRKG2, Homo sapiens, UniProt Q13237): 119%
Insulin receptor-related protein (INSRR, Homo sapiens, UniProt P14616): 80%
Aurora kinase A (AURKA, Homo sapiens, UniProt O14965): 97%

Series 3 — tested at: 1 µM; measurement: remaining binding
Structure (SMILES): CS(=O)(=O)c1cc(C2(NC(=O)c3cncc4c3cnn4-c3ccc(F)cc3)CC2)ccn1
Hepatocyte growth factor receptor (MET, Homo sapiens, UniProt P08581, M1250T); cell-free assay, competition with immobilised ligand: 82%
Mitogen-activated protein kinase 9 (MAPK9, Homo sapiens, UniProt P45984); cell-free assay, competition with immobilised ligand: 100%
Cyclin-dependent kinase 19 (CDK19, Homo sapiens, UniProt Q9BWU1); competition binding: 91%
Cyclin-dependent kinase-like 5 (CDKL5, Homo sapiens, UniProt O76039); cell-free assay, competition with immobilised ligand: 89%
Serine/threonine-protein kinase Nek5 (NEK5, Homo sapiens, UniProt Q6P3R8); cell-free assay, competition with immobilised ligand: 100%
Tyrosine-protein kinase ABL1, phosphorylated (ABL1, Homo sapiens, UniProt P00519); cell-free assay, competition with immobilised ligand: 71%
Phosphatidylinositol 4,5-bisphosphate 3-kinase catalytic subunit alpha isoform (PIK3CA, Homo sapiens, UniProt P42336, E542K); cell-free assay, competition with immobilised ligand: 80%
Tyrosine-protein kinase receptor Tie-1 (TIE1, Homo sapiens, UniProt P35590); cell-free assay, competition with immobilised ligand: 73%

Series 4 — cell line: HaCaT; tested at: 100 µM; time: 36 h; measurement: viability
CC(CN(C)C)CN1c2ccccc2CCc2ccccc21 (stereo not shown): 98.2%
Cc1c(-c2ccccc2)oc2c(C(=O)OCCN3CCCCC3)cccc2c1=O: 28.1%
C[C@@H]1[C@H](O)[C@@H](C)/C=C/C=C/C=C/C=C/C=C/C=C/C=C/[C@H](O[C@@H]2O[C@H](C)[C@@H](O)[C@H](N)[C@@H]2O)C[C@@H]2O[C@](O)(C[C@@H](O)C[C@@H](O)[C@H](O)CC[C@@H](O)C[C@@H](O)CC(=O)O[C@H]1C)C[C@H](O)[C@H]2C(=O)O: 89%
CC1(C)O[C@@H]2C[C@H]3[C@@H]4C[C@H](F)C5=CC(=O)C=C[C@]5(C)[C@@]4(F)[C@@H](O)C[C@]3(C)[C@]2(C(=O)CO)O1: 87%
CCCCCCCCCCCCCCCC[N+](C)(C)CCN(Cc1ccc(OC)cc1)c1ncccn1: 7.78%
C#C[C@]1(O)CC[C@H]2[C@@H]3CCc4cc(O)ccc4[C@H]3CC[C@@]21C: 12.3%

Series 5 — observed: cell-free assay; tested at: 1 µM; measurement: remaining signal
SMILES: C[C@H]1CC[C@H](n2c3cnccc3c3cnc(Nc4ccc5c(n4)CCN(C(=O)CO)C5)nc32)CC1
Calcium-dependent protein kinase 1 (CDPK1, Plasmodium falciparum, UniProt P62344): 53%
Hormonally up-regulated neu tumor-associated kinase (HUNK, Homo sapiens, UniProt P57058): 80%
Protein kinase C iota type (PRKCI, Homo sapiens, UniProt P41743): 100%
Serine/threonine-protein kinase BRSK2 (BRSK2, Homo sapiens, UniProt Q8IWQ3): 60%
Serine/threonine-protein kinase mTOR (MTOR, Homo sapiens, UniProt P42345): 100%
Serine/threonine-protein kinase PAK 3 (PAK3, Homo sapiens, UniProt O75914): 26%
Cyclin-dependent kinase 16 (CDK16, Homo sapiens, UniProt Q00536): 5.2%

Some of these lines once more (series 1):
Fibroblast growth factor receptor 1 (FGFR1, Homo sapiens, UniProt P11362): 99.5%
Tyrosine-protein kinase JAK3 (JAK3, Homo sapiens, UniProt P52333): 80.9%
Serine/threonine-protein kinase A-Raf (ARAF, Homo sapiens, UniProt P10398): 104%
Serine/threonine-protein kinase ULK2 (ULK2, Homo sapiens, UniProt Q8IYT8): 113%
Mitogen-activated protein kinase kinase kinase 5 (MAP3K5, Homo sapiens, UniProt Q99683): 103%
Serine/threonine-protein kinase ULK3 (ULK3, Homo sapiens, UniProt Q6PHR2): 95.8%
Dual specificity mitogen-activated protein kinase kinase 2 (MAP2K2, Homo sapiens, UniProt P36507): 92.5%
Tyrosine-protein kinase FRK (FRK, Homo sapiens, UniProt P42685): 95.8%
